Measured values of several laboratories.
Protocols differ between the studies behind these lines. ± marks the error that the study gave.
CA1: Carbonic anhydrase 1 (CA1, Homo sapiens, UniProt P00915)
OPRK1: Kappa-type opioid receptor (OPRK1, Cavia porcellus, UniProt P41144)
Oprd1: Delta-type opioid receptor (Oprd1, Rattus norvegicus, UniProt P33533)
WDR5: WD repeat-containing protein 5 (WDR5, Homo sapiens, UniProt P61964)
CNR1: Cannabinoid receptor 1 (CNR1, Homo sapiens, UniProt P21554)

| SMILES | tested on | test | test system | setting | measurement | value |
| --- | --- | --- | --- | --- | --- | --- |
| COc1c(C(C)C)cc2c(c1O)[C@@]1(C(=O)O)CCCC(C)(C)C1CC2 (stereo partly shown) | CA1 | enzyme activity, inhibitor | – | – | Ki | 0.00118 µM |
| O=C1NC2(CC2)COc2ncc(F)cc2[C@H]2COCCN2c2ccn3ncc1c3n2 | – | – | Sprague-Dawley rat, male, kidneys | oral, 20 mg/kg/day, 4 weeks dosing, end of recovery | organ-to-brain weight ratio | 156 ± 18.8% |
| N=C(N)NCCC[C@H]1NC(=O)[C@@H](Cc2ccc(O)cc2)NC(=O)[C@H](CCCCN)NC(=O)[C@H](Cc2ccccc2)NC1=O | OPRK1 | ligand displacement, radioligand | – | cell membranes | Ki | > 10 µM |
| Cc1cc(O)cc(C)c1C[C@H](N)C(=O)N[C@H](CCCNC(=N)N)C(=O)N[C@@H](Cc1ccccc1)C(=O)N[C@@H](CCCCN)C(=O)NCCCCCCCCNC(=O)[C@H](Cc1ccccc1)NC(=O)[C@H](CC1CCCCC1)NC[C@@H]1Cc2ccccc2CN1C(=O)[C@@H](N)Cc1ccc(O)cc1 | Oprd1 | ligand displacement, radioligand | – | cell membranes | Ki | 0.00732 µM |
| Cc1ccc(S(=O)(=O)Oc2ccc(/C=N/NS(=O)(=O)c3ccc(Cl)cc3)cc2)cc1 | CA1 | enzyme activity, inhibitor, absorbance | – | – | Ki | 0.0116 µM |
| C[C@@H](Cc1ccsc1)NC(=O)NC[C@H](Cc1ccc(O)cc1)N(C)C | D(2) dopamine receptor (DRD2, Homo sapiens, UniProt P14416) | cell-free assay | – | – | Ki | 25 µM |
| C[C@@H](CN1CCC(Cc2ccccc2)CC1)[C@@H](O)c1ccc(O)cc1 | Sodium-dependent serotonin transporter (SLC6A4, Homo sapiens, UniProt P31645) | binding, inhibitor | – | – | Ki | 1.42 µM |
| COC1c2cc(C(C)C)c(O)c(O)c2C23CCCC(C)(C)C2C1OC3=O (stereo not shown) | CA1 | enzyme activity, inhibitor | – | – | Ki | 0.00085 µM |
| O=S(=O)(N/N=C/c1ccc(OS(=O)(=O)c2cc(Cl)ccc2Cl)cc1)c1cc(Cl)ccc1Cl | CA1 | enzyme activity, inhibitor, absorbance | – | – | Ki | 0.0267 µM |
| CC[C@@H]1NC(=O)[C@H](CCCNC(=N)N)NC(=O)[C@H](NC(=O)C(C)C)CCNC(=O)c2cc(F)c(c(F)c2)N=Nc2c(F)cc(cc2F)C(=O)NCCNC(=O)[C@@H](c2ccccc2)NC1=O | WDR5 | binding, inhibitor, competitive fluorescence polarization | – | trans isomer, 405 nm photostationary state | Ki | 0.051 µM |
| Cc1cc(O)cc(C)c1C[C@H](N)C(=O)N[C@H](CCCNC(=N)N)C(=O)N[C@@H](Cc1ccccc1)C(=O)N[C@@H](CCCCNC(=O)CN1CCN(CC(=O)O)CCN(CC(=O)O)CCN(CC(=O)O)CC1)C(N)=O | OPRK1 | ligand displacement, radioligand | – | cell membranes | Ki | 0.146 µM |
| Cc1cc(=O)oc2cc(OCCCCCC[Se]C#N)ccc12 | CA1 | enzyme activity, inhibitor, stopped-flow | – | – | Ki | > 100 µM |
| CCOC(=O)C(CC)(CC)NC(=O)c1ccc(C2CC2)c(Cc2ccc(F)cc2)n1 | CNR1 | ligand displacement, radioligand | – | cell membranes | Ki | 0.0054 µM |
| Cc1cc(O)cc(C)c1C[C@H](N)C(=O)N[C@H](CCCNC(=N)N)C(=O)N[C@@H](Cc1ccccc1)C(=O)N[C@@H](CCCCN)C(=O)NCCCCCC(=O)N[C@@H](CCCCNC(=O)CN1CCN(CC(=O)O)CCN(CC(=O)O)CCN(CC(=O)O)CC1)C(N)=O | OPRK1 | – | guinea pig | – | Ki | 0.0661 ± 0.0054 µM |
| CN(C)[C@H](CNC(=O)/C=C/c1cccc2ccccc12)Cc1ccc(O)cc1 | Orexin receptor type 2 (HCRTR2, Homo sapiens, UniProt O43614) | – | – | – | Ki | > 50 µM |
| O=S(=O)(N/N=C/c1ccc(OS(=O)(=O)c2ccccc2)cc1)c1ccc(Cl)cc1 | CA1 | enzyme activity, inhibitor, absorbance | – | – | Ki | 0.478 µM |
| CC[C@@H]1NC(=O)[C@H](CCCNC(=N)N)NC(=O)[C@H](NC(=O)C(C)C)CCNC(=O)c2cc(F)c(c(F)c2)N=Nc2c(F)cc(cc2F)C(=O)NCCNC(=O)[C@@H](Cc2ccccc2)NC1=O | WDR5 | fluorescence polarization competition | – | trans PSS, irradiated 520 nm with WDR5 in situ | Ki | 0.00653 ± 0.00248 µM |
| N[C@H]1CCSC1=O | CA1 | enzyme activity, inhibitor, stopped-flow | – | – | Ki | > 100 µM |
| Cc1cc(O)cc(C)c1C[C@H](N)C(=O)N[C@H](CCCNC(=N)N)C(=O)N[C@@H](Cc1ccccc1)C(=O)N(C)CC(=O)N(C)Cc1cc(C(F)(F)F)cc(C(F)(F)F)c1 | Delta-type opioid receptor (OPRD1, Homo sapiens, UniProt P41143, V281A) | – | – | – | Ki | 0.106 µM |

| SMILES | tested on | test | test system | setting | measurement | value |
| --- | --- | --- | --- | --- | --- | --- |
| Cc1cc(O)cc(C)c1C[C@H](N)C(=O)N[C@@H]1CCCCC[C@@H](C(N)=O)NC(=O)[C@H](Cc2ccccc2)NC(=O)[C@H](Cc2ccccc2)NC1=O | OPRK1 | ligand displacement, radioligand | – | cell membranes | Ki | 0.0158 µM |
| COc1cc2c(cc1O)C(CCc1ccc(Cl)cc1)N(C)CC2 (stereo not shown) | Alpha-1A adrenergic receptor (ADRA1A, Homo sapiens, UniProt P35348) | cell-free assay, radioligand | – | – | Ki | 2.4 µM |
| COc1ccc(CC[C@H]2OC(=O)[C@@H]3CCCCN3C(=O)C(=O)C(C)(C)COC(=O)/C=C/CCN(C)C(=O)[C@H](CC(C)C)N(C)C(=O)[C@@H]3CCCN3C(=O)[C@H](Cc3ccccc3)N(C)C(=O)[C@H](c3ccccc3)NC(=O)CCC(=O)Nc3cccc2c3)cc1OC | Peptidyl-prolyl cis-trans isomerase FKBP3 (Homo sapiens, UniProt Q00688) | enzyme activity, inhibitor | – | – | Ki | > 5 µM |
| Cc1cc(O)cc(C)c1C[C@H](N)C(=O)N[C@H](CCCNC(=N)N)C(=O)N[C@@H](Cc1ccccc1)C(=O)N[C@@H](CCCCN)C(=O)NCCCCCCCCCCCCNC(=O)[C@H](Cc1ccccc1)NC(=O)[C@H](CC1CCCCC1)NC[C@@H]1Cc2ccccc2CN1C(=O)[C@@H](N)Cc1ccc(O)cc1 | Oprd1 | ligand displacement, radioligand | – | cell membranes | Ki | 0.0414 µM |
| COc1ccc2c(c1)c(CCN(C)C)cn2Cc1ccccc1 | 5-hydroxytryptamine receptor 1A (HTR1A, Homo sapiens, UniProt P08908) | ligand displacement, radioligand | – | cell membranes | Ki | 0.379 µM |
| Cc1cc(O)cc(C)c1C[C@H](N)C(=O)N[C@@H]1C/C=C\CC[C@@H](C(N)=O)NC(=O)[C@H](Cc2ccccc2)NC(=O)[C@H](Cc2ccccc2)NC1=O | OPRK1 | ligand displacement, radioligand | – | cell membranes | Ki | 0.0128 µM |
| CC(C)CCCC(C)C1CCC2C3CCC4CC(OC5OC(C)C(OC6OC(C)C(OC7OC(C)C(OC8OC(C)C(OS(=O)(=O)O)C(OS(=O)(=O)O)C8OS(=O)(=O)O)C(OS(=O)(=O)O)C7OS(=O)(=O)O)C(OS(=O)(=O)O)C6OS(=O)(=O)O)C(OS(=O)(=O)O)C5OS(=O)(=O)O)CCC4(C)C3CCC12C (stereo not shown) | Heparanase (HPSE, Homo sapiens, UniProt Q9Y251) | enzyme activity, inhibitor | – | – | Ki | 0.0023 µM |
| CCCCCn1ccc(C(=O)NC(C)(C)c2ccc(NC(C)=O)cc2)n1 | CNR1 | ligand displacement, radioligand | – | – | Ki | 1.34 µM |
| CN1CCN(c2cccc3c2ccn3C(=O)c2ccccc2)CC1 | D(2) dopamine receptor, long isoform (DRD2, Homo sapiens, UniProt P14416) | binding, radioligand displacement | HEK293 membranes | 1 h, 37 °C, added: [3H]-raclopride | Ki | 0.088 ± 0.011 µM |
| O=[N+]([O-])c1ccc(S(=O)(=O)Oc2ccc(/C=N/NS(=O)(=O)c3cc(Cl)ccc3Cl)cc2)cc1 | CA1 | enzyme activity, inhibitor, absorbance | – | – | Ki | 0.00912 µM |
| NC(=O)[C@@H]1CC/C=C\C[C@@H](NC(=O)[C@@H](N)Cc2ccc(O)cc2)C(=O)N[C@@H](Cc2ccccc2)C(=O)N[C@@H](Cc2ccccc2)C(=O)N1 | Oprd1 | ligand displacement, radioligand | – | cell membranes | Ki | 0.00091 µM |
| CC[C@@H]1NC(=O)[C@H](CCCNC(=N)N)NC(=O)[C@H](NC(=O)C(C)C)CCCCNC(=O)c2cc(F)c(c(F)c2)N=Nc2c(F)cc(cc2F)C(=O)NCCNC(=O)[C@@H](Cc2ccccc2)NC1=O | WDR5 | binding, inhibitor, competitive fluorescence polarization | – | cis isomer, 520 nm photostationary state | Ki | 0.137 µM |
| Cc1cc(O)cc(C)c1CCC(=O)N[C@@H]1C/C=C/CC[C@@H](C(N)=O)NC(=O)[C@H](Cc2ccccc2)NC(=O)[C@H](Cc2ccccc2)NC1=O | Oprd1 | ligand displacement, radioligand | – | cell membranes | Ki | 0.027 µM |
| CC[C@@H]1NC(=O)[C@H](CCCNC(=N)N)NC(=O)[C@@H](C)NC(=O)c2cc(F)c(c(F)c2)N=Nc2c(F)cc(cc2F)C(=O)NCCNC(=O)[C@@H](Cc2ccccc2)NC1=O | WDR5 | binding, inhibitor, competitive fluorescence polarization | – | trans isomer, 405 nm photostationary state | Ki | 3.35 µM |
| Cc1cc(O)cc(C)c1C[C@H](N)C(=O)N[C@H](CCCNC(=N)N)C(=O)N[C@@H](Cc1ccccc1)C(=O)N[C@@H](CCCCN)C(=O)NCCCCCCCCCCNC(=O)[C@H](Cc1ccccc1)NC(=O)[C@H](CC1CCCCC1)NC[C@@H]1Cc2ccccc2CN1C(=O)[C@@H](N)Cc1ccc(O)cc1 | Oprd1 | ligand displacement, radioligand | – | cell membranes | Ki | 0.0153 µM |
| CC[C@@H]1NC(=O)[C@H](CCCNC(=N)N)NC(=O)[C@H](NC(=O)C(C)C)CNC(=O)c2cc(F)c(c(F)c2)N=Nc2c(F)cc(cc2F)C(=O)NCCNC(=O)[C@@H](Cc2ccccc2)NC1=O | WDR5 | binding, inhibitor, competitive fluorescence polarization | – | cis isomer, 520 nm photostationary state | Ki | 0.104 µM |
| O=C1c2ccccc2CCCN1CCCCN1CCN(c2cccc(Cl)c2Cl)CC1 | 5-hydroxytryptamine receptor 1D (HTR1D, Homo sapiens, UniProt P28221) | ligand displacement, radioligand | – | – | Ki | > 10 µM |
| Cc1cc(O)cc(C)c1CCC(=O)N[C@@H]1CCCCC[C@@H](C(N)=O)NC(=O)[C@H](Cc2ccccc2)NC(=O)[C@H](Cc2ccccc2)NC1=O | OPRK1 | ligand displacement, radioligand | – | cell membranes | Ki | > 0.5 µM |

A few entries again:
| SMILES | tested on | test | test system | setting | measurement | value |
| --- | --- | --- | --- | --- | --- | --- |
| Cc1cc(O)cc(C)c1C[C@H](N)C(=O)N[C@H](CCCNC(=N)N)C(=O)N[C@@H](Cc1ccccc1)C(=O)N[C@@H](CCCCN)C(=O)NCCCCCCCCNC(=O)[C@H](Cc1ccccc1)NC(=O)[C@H](CC1CCCCC1)NC[C@@H]1Cc2ccccc2CN1C(=O)[C@@H](N)Cc1ccc(O)cc1 | Oprd1 | ligand displacement, radioligand | – | cell membranes | Ki | 0.00732 µM |
| Cc1ccc(S(=O)(=O)Oc2ccc(/C=N/NS(=O)(=O)c3ccc(Cl)cc3)cc2)cc1 | CA1 | enzyme activity, inhibitor, absorbance | – | – | Ki | 0.0116 µM |
| C[C@@H](Cc1ccsc1)NC(=O)NC[C@H](Cc1ccc(O)cc1)N(C)C | D(2) dopamine receptor (DRD2, Homo sapiens, UniProt P14416) | cell-free assay | – | – | Ki | 25 µM |
